Results collected from several papers.
Numbered parts are unrelated; each lists some results of a single study.

Block 1
Target: Sal-like protein 4, full length isoform A (SALL4, Homo sapiens, UniProt Q9UJQ4, residues 1-1053)
Chain of UniProt Q9UJQ4 (whole entry, looked up): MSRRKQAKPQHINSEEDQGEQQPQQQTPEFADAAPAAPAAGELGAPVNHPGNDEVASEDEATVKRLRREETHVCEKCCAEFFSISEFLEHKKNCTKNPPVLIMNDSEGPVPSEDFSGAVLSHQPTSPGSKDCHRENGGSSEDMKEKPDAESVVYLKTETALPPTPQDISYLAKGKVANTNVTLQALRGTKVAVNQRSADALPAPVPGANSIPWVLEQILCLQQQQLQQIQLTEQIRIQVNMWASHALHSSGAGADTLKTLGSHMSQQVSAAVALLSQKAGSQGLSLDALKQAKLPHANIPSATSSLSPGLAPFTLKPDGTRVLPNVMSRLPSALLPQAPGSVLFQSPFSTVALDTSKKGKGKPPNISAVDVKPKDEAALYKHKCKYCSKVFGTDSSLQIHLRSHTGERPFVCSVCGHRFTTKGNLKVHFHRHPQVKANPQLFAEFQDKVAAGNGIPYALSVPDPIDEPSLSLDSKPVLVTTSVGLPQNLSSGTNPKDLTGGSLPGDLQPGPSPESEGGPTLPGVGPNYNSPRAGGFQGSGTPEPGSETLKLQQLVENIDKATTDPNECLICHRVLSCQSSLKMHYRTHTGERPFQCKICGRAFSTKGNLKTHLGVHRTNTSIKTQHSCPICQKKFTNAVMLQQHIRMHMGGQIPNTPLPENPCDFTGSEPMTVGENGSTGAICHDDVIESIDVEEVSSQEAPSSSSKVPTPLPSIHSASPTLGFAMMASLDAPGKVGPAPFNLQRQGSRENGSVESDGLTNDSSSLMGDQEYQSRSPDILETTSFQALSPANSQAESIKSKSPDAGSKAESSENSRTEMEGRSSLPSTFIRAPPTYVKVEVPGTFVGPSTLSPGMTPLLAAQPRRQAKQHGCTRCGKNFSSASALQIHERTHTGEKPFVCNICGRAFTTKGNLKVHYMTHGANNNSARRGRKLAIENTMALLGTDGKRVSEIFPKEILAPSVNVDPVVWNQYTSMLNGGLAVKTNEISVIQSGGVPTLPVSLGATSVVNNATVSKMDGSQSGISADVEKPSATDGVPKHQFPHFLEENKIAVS
Technique: universal PBM
Form: double-stranded DNA, one strand shown
Medium: in vitro
Tested at: 600 nM
Setting: 8-mer, flanks averaged, mean of replicates
Direction: higher = stronger binding
Measurement: E-score
GATGTCGA: -0.0197
GTGGGGTA: -0.0633
CCACGATA: 0.168
AGTCTTCA: 0.0209
ATTTCCCG: 0.122
TGACCTCA: -0.149
ATACATTG: 0.215
CCGCTTTA: 0.0502
AAAGACTT: 0.225
AACTAAGA: 0.199
ACGTAGTC: -0.0283
AATTCTGC: 0.07

Block 2
Target: Centromere-binding protein 1, full length, N-terminal tag (CBF1, Saccharomyces cerevisiae, UniProt P17106, residues 1-351)
Chain of UniProt P17106 (whole entry, looked up): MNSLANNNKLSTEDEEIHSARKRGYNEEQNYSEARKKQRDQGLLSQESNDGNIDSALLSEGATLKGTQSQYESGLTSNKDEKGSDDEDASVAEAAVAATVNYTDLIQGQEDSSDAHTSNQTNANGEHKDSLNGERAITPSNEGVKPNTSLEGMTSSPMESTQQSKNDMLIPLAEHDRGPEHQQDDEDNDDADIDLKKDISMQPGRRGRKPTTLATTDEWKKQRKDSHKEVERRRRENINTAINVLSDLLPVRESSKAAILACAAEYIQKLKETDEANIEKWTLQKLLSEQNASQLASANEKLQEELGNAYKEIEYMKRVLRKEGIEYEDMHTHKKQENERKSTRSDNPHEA
Technique: protein-binding microarray
Form: double-stranded DNA, one strand shown
Medium: in vitro
Tested at: 0.8 µM
Setting: whole 60-bp probe, no competitor
Direction: higher = stronger binding
Measurement: fluorescence intensity
Constant ends, left off below: … GTCTTGATTCGCTTGACGCTGCTG
CCTAACTACTATAATCATGTTCTATAGCTTCGTACA: 512 a.u.
GAATCTAATAACAAGCACGTAGAATATTGGCCATAG: 520 a.u.
CTAACAGAAACAAATCACATGTTTCCTTGGCAGTTC: 2620 a.u.
GAAAATTCCCCTCTTCTGATGCTTAATTGCCCCTAG: 494 a.u.
TGTACGAAGCTATTGTACGTGCTTATAGTAGTTAGG: 559 a.u.
GAACTTGATTAACGTGATTATACTTTTTAAACCTAG: 1110 a.u.
CCTAACTACTATATATTCGTGGTATAGCTTCGTACA: 518 a.u.
GAATCTCTGCGTCTTCACATGCGCGGGACAACTTAG: 596 a.u.
CCTAACTACTATAATCAGGTGTAATAGCTTCGTACA: 661 a.u.

Block 3
Target: Sox-I, HMG box (Salpingoeca helianthica)
Technique: Spec-seq
Form: double-stranded DNA, one strand shown
Medium: in vitro
Tested at: not given
Setting: whole probe, mean of replicates
Reference: not given
Direction: lower = stronger binding
Measurement: relative binding energy
Constant ends, left off below: GAGTCGTCTCGTCAGCAC … CCGTAGAGCACTCAGGTC
Residues (chain): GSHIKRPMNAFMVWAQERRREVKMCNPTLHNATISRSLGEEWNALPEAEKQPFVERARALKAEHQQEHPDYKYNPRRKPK
GCTAGTT: 0.213 ln ratio
CGGTGTT: 0.51 ln ratio
AGAGGTT: 0.249 ln ratio
CATGAGT: 1.01 ln ratio
GGCAGTT: 0.978 ln ratio
CACCGTT: 0.439 ln ratio
CATCATC: 0.547 ln ratio
AAATGTT: -0.578 ln ratio
CATATGT: 0.557 ln ratio

Mixed results
PhoQ, residues 284 288 289 292 302 303 SSTMSV
fold induction (PhoP, residues 12 14 15 18 19 NQFFI (Escherichia coli, UniProt P23836); Sort-seq, item: YFP reporter; E. coli; PhoQ-PhoP variant library, together with: 10 µM Mg2+; reference: high Mg2+ state, higher = stronger signaling): 2.83

Excerpt of the above (block 1):
AAAGACTT: 0.225
GTGGGGTA: -0.0633
ACGTAGTC: -0.0283
